Measured values collected from several papers.
Each line is one published result; not all experiments were run side by side. Numbers after ± are the reported error.

C=C(NC(=O)c1csc(-c2nc3c(cc2O)-c2nc(cs2)C(=O)NC(C(C)O)C(=O)NC(=C(C)OC)c2nc(cs2)C(=O)NC2c4nc(cs4)C(=O)NC(COC(=O)c4c5c6c(cccc6n4O)COC(=O)C(OC4CC(C)(O)C(N(C)C)C(C)O4)C2OC5)c2nc-3cs2)n1)C(N)=O (stereo not drawn)  bacterial load (Streptococcus pneumoniae; -25, immunocompromised mice, lung infection, lung; 4 mg/kg/day three times daily, 24 h post-dose): 5.42 log CFU/g
CCN(CC)CC(=O)Nc1cccc(-n2cc(-c3ccc4ccc(-c5cn(-c6cccc(NC(=O)CN(CC)CC)c6)nn5)cc4c3)nn2)c1  fold regulation (RCC4; PCR array, measured: LEP; 5 x IC50, 4 h, normoxia; baseline: untreated): -1.27
C[N+](C)(C)CCO.O=C([O-])C(Cl)Cl  herbicidal inhibition (Eleusine indica; 15 mg/mL, 21 days, post-emergence, greenhouse): 0%
CC[n+]1cccc2cc(/C=N/NC(=O)c3ccc4ccc5ccc(C(=O)N/N=C/c6ccc7c(ccc[n+]7CC)c6)nc5c4n3)ccc21  ΔTm (myc22 MYC G4-DNA parallel; FRET melting; 1 µM, K1 buffer, DNA 0.2 µM): 29.4 ± 0.5 °C
Nc1ncc(-c2cc(-c3cnn(CC(F)(F)F)c3)ncc2F)nc1C(=O)NC1CNCC(F)C1 (stereo not drawn)  remaining binding (MEK4; KINOMEscan; 1 µM; baseline: DMSO control): 100%
CNS(=O)(=O)Nc1nccc(Cc2c(C)c3ccc(Oc4ncccc4F)cc3oc2=O)c1F  IC50 (769-P; cell viability; 7 days): > 1000 nM
CN1CCCNC(=O)c2cccc(c2)C(=O)NCCCN(C)CCCNc2cccc3c2C(=O)c2cccc(c2C3=O)NCCC1  log2 fold change (SAS; RNA-Seq, measured: DDX19A mRNA; 1 µM, 6 h; baseline: untreated cells): -0.982
O=C(N/N=C/c1cc[n+](CC2CC2)c2ccccc12)c1ccc2ccc3ccc(C(=O)N/N=C/c4cc[n+](CC5CC5)c5ccccc45)nc3c2n1  ΔTm (myc22 MYC G4-DNA parallel; FRET melting; 1 µM, K1 buffer, DNA 0.2 µM): 24.6 ± 0.7 °C
C=CC(=O)N1[C@@H](c2ccc3c(c2)OCO3)c2[nH]c3ccccc3c2C[C@H]1C(=O)N1CCN(C)CC1  relative co-enrichment (human cyclin E1 N112C-3xFLAG:CDK2; co-IP with TMT proteomics, measured: BCLAF1; concentration not given, Q9NYF8; baseline: wild type DMSO): 128%
Cc1ncsc1-c1ccc(C(C)NC(=O)C2CC(O)CN2C(=O)C(NC(=O)CCCCCCCCCCN2CCCC(Nc3ncc(Cl)c(Nc4ccccc4S(=O)(=O)C(C)C)n3)C2)C(C)(C)C)cc1 (stereo not drawn)  log2 fold change (22Rv1; RNA-seq, measured: ZNF142 mRNA; concentration not given; baseline: DMSO): -1.55
CN1CCC[C@]1(C)/C=C/S(=O)(=O)NC(=O)Nc1c2c(cc3c1CCC3)CCC2  IL-1β inhibition (human, whole blood ex vivo; 250 mg single dose, 12 h, single ascending dose, added: LPS and ATP): 99%
CC[n+]1cccc2cc(/C=N/NC(=O)c3cc(C(=O)N/N=C/c4ccc5c(ccc[n+]5CC)c4)ncn3)ccc21  ΔTm (myc22 MYC G4-DNA parallel; FRET melting; 1 µM, K1 buffer, DNA 0.2 µM, added: ds26 10 µM): 3.4 ± 0.3 °C
c1ccc(-c2n[nH]cc2-c2ccnc3ccccc23)nc1  log2 fold change (orf19.4575 Candida albicans; kinase binding, MIB/MS competition; Candida albicans lysate; 1 µM; baseline: DMSO): 0.04
C[n+]1ccc(/C=N/NC(=O)c2ccc3ccc4ccc(C(=O)N/N=C/c5cc[n+](C)cc5)nc4c3n2)cc1  ΔTm (myc22 MYC G4-DNA parallel; FRET melting; 1 µM, K1 buffer, DNA 0.2 µM): 19.8 ± 0.5 °C
C=CC(=O)Nc1cccc(Cn2ncc3cnc(Nc4cnn(CCOC)c4)nc32)c1  percent of control (CAMK2B human; binding, KINOMEscan; 100 nM; lower = stronger binding): 99%
CC(=O)[O-].O.O.O.O.[Mn+2].[O-]c1ccc(Br)cc1C=NCCN1CCOCC1  inhibition (hydroxyl radical scavenging; 160 µM): 36.8%
C[n+]1cc(/C=N/NC(=O)c2ccc3ccc(C(=O)N/N=C/c4cc5ccccc5[n+](C)c4)nc3n2)cc2ccccc21  ΔTm (myc22 MYC G4-DNA parallel; FRET melting; 1 µM, K1 buffer, DNA 0.2 µM, added: ds26 10 µM): 15.5 ± 0.4 °C
COC1CN([C@H]2CC[C@H]([C@@]3(C)Oc4c(Cl)cc(C(=O)NCc5c(SC)cc(C)[nH]c5=O)c(C)c4O3)CC2)C1  log2 fold change (RNA-seq, measured: ZNF219; human, whole blood; dose not given, 24 h; baseline: pretreatment baseline): 1.41
O=C(N/N=C/c1ccc2c(ccc[n+]2Cc2ccccc2)c1)C(=O)N/N=C/c1ccc2c(ccc[n+]2Cc2ccccc2)c1  ΔTm (myc22 MYC G4-DNA parallel; FRET melting; 1 µM, K1 buffer, DNA 0.2 µM): 5 ± 0.5 °C
CC(C)c1ccc(N(C)c2ccc3c(c2)OCC[C@H]3CNc2cnccc2C(=O)O)cc1  IC50 (NCI-H1793; cell growth or viability, ATP luminescence; 7 days): 15.3 nM
O=C(N/N=C/c1ccc(C[n+]2ccccc2)cc1)c1cccc(C(=O)N/N=C/c2ccc(C[n+]3ccccc3)cc2)c1  ΔTm (myc22 MYC G4-DNA parallel; FRET melting; 1 µM, K1 buffer, DNA 0.2 µM, added: ds26 10 µM): 2.2 ± 0.6 °C
COc1ccc(C(=O)CCc2cc(C(CCc3ccc(O)cc3OC)c3ccc(O)cc3)c(O)cc2OC)cc1 (racemic)  EPA level (human blood; 3 µM, added: A23187): 90000 ± 27200 pg/mL
C[n+]1cc(/C=N/NC(=O)c2cncc(C(=O)N/N=C/c3cc4ccccc4[n+](C)c3)n2)cc2ccccc21  ΔTm (myc22 MYC G4-DNA parallel; FRET melting; 1 µM, K1 buffer, DNA 0.2 µM): 15.9 ± 0.2 °C
COc1cc(O)ccc1CCC(c1ccc(O)cc1)c1cc2c(c(C)c1O)OC(c1ccc(O)cc1)CC2 (mixture of isomers)  amount (measured: 5-HEPE; human whole blood; 3 µM, added: Escherichia coli): 91 ± 25 pg/mL blood

Some of these lines once more:
C[n+]1cc(/C=N/NC(=O)c2ccc3ccc(C(=O)N/N=C/c4cc5ccccc5[n+](C)c4)nc3n2)cc2ccccc21  ΔTm (myc22 MYC G4-DNA parallel; FRET melting; 1 µM, K1 buffer, DNA 0.2 µM, added: ds26 10 µM): 15.5 ± 0.4 °C
COC1CN([C@H]2CC[C@H]([C@@]3(C)Oc4c(Cl)cc(C(=O)NCc5c(SC)cc(C)[nH]c5=O)c(C)c4O3)CC2)C1  log2 fold change (RNA-seq, measured: ZNF219; human, whole blood; dose not given, 24 h; baseline: pretreatment baseline): 1.41
O=C(N/N=C/c1ccc2c(ccc[n+]2Cc2ccccc2)c1)C(=O)N/N=C/c1ccc2c(ccc[n+]2Cc2ccccc2)c1  ΔTm (myc22 MYC G4-DNA parallel; FRET melting; 1 µM, K1 buffer, DNA 0.2 µM): 5 ± 0.5 °C
CC(C)c1ccc(N(C)c2ccc3c(c2)OCC[C@H]3CNc2cnccc2C(=O)O)cc1  IC50 (NCI-H1793; cell growth or viability, ATP luminescence; 7 days): 15.3 nM
